# Measured values gathered from unrelated publications.
# Numbered parts are unrelated; each lists some results of a single study. Changes are numbered by the printed parent chain.

# Sample 1 — target: CCNA1, cyclin fold, Cln2 fusion (human); technique: yeast growth competition, sequencing; matrix: yeast; setting: weak parent motif; relative to: not given; direction: higher = stronger binding
# Starting sequence: RRM2 docking peptide (human); SKTARRIFQEPTE; partner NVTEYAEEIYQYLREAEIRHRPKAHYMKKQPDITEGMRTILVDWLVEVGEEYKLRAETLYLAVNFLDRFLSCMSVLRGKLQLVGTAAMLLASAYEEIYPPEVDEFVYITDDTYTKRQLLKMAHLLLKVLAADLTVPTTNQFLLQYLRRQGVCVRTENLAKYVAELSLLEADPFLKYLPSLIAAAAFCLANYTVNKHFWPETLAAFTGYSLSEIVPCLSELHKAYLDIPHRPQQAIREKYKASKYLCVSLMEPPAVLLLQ
Change,normalised enrichment score
SATARRIFQEPTE [K2A],0.175
SKTARRIFQEATE [P11A],-0.429
SKTARRIFQEPTA [E13A],0.0684
SKTARRIFQAPTE [E10A],0.163
SKTARRIAQEPTE [F8A],0.296
SKTAARIFQEPTE [R5A],0.281

# Sample 2 — technique: RNA Bind-n-Seq; form: RNA; matrix: in vitro; concentration: 1 µM; setting: whole 134-nt RNA, ends assumed; with: 150 mM KCl; relative to: input library; direction: higher = stronger binding
# Target: Ras GTPase-activating protein-binding protein 1, C-terminal RGG region (G3BP1, Homo sapiens, UniProt Q13283)
# UniProt Q13283, sequence (whole entry, looked up): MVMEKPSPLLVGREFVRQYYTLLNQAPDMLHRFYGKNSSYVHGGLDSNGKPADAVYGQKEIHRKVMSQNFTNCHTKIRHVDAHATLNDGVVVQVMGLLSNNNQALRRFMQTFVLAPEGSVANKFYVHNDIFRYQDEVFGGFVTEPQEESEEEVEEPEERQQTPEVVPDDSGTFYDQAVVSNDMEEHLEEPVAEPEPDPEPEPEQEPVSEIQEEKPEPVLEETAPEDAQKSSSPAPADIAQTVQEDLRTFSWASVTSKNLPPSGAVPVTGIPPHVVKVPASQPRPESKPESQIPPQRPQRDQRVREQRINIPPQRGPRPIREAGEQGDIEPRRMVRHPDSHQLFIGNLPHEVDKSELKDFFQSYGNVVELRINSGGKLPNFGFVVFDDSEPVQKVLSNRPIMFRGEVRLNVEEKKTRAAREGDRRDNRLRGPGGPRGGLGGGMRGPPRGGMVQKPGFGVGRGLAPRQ
Oligonucleotide,log2 enrichment
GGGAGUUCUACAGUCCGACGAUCAAGUCCUGUGCUACACAUCGUAUGUACCGAAUCGGGAAAAAGGGUUUUUGGGUGGGAAAGUAUUAUGUUACGCCGUUCGGAUCUGCACUUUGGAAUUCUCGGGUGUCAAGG,0.883
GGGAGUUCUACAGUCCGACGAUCUAACUUUAGAGGAGGAUCUGAUGAAUAUGGCAGUGGACGUGGAUUUGGGGAUGGCUAUAAUGGGUAUGGAGGAGGACCUGGAGGUGGCAAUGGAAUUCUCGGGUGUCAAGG,-1.24
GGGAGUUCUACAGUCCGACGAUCUGGCCCUGGUGGCAUGCGGGGAGGAAGAGGUGGCCUCAUGGAUCGUGGUGGUCCCGGUGGAAUGUCCAGAGGUGGCCGUGGUGGAGACAGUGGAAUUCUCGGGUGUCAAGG,1.88
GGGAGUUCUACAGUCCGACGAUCACCAUGCAGGUGGGCAUCUUUGGGAAGUGGGGCAAGGGGGGGAUAGGGAGGGGGGUAACACUUUGGUAACAGGUGGUCCCAGGUCGUUUCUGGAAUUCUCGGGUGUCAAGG,1.97
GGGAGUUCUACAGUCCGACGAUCCUGUGCUACACAUCGUAUGUACCGAAUCGGGUUUUUUUGGGUUUUUUUGGGUUUUUUUGGGGAAAGUAUUAUGUUACGCCGUUCGGAUCUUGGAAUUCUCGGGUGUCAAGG,-1.01
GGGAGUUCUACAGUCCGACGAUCGCAGGAAGUAAAAACAAAUGGAAAUGCUUCGGAUAGUGGCAGGGGUGGGGGUAAAUAAGGAAAGGGUGGGAUGGGAGUGGGUAAAGAGUUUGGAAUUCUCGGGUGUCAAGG,1.31
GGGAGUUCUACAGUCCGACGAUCUGUGUGCAUUCCCUGCGCCAAGGGCUUCCCCAGCUCUGAGCAGCUCAAUGCGCACGUGGAGACUCACACGGAGGAAGAGCUGUUCAUCAAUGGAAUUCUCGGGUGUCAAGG,-1.46
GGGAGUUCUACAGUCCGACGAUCCACAGACAACACGCACCCACACAGACACAGAGGGAAGGCGUUGGGAUGGGGACAGGGUGCACAGCAGGGCGGGGUAGGACCCCAGCCCCUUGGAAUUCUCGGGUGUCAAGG,-0.791
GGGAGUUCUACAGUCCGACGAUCCAACGUUGAAAUGGAUUGGGUGUUGAAGCAUACUGGUCCAAAUAGUCCUGACACGGCCAAUGAUGGCUUUGUACGGCUUAGAGGACUUCCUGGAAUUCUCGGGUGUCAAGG,-1.93
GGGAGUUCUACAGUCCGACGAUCUGGCCCUGGUGGCAUGCGGGGAGGAAGAGGUGGCCUCAUUGAUCGUGGUGGUCCCGGUGGAAUGUUCAGAGGUGGCCGUGGUGGAGACAGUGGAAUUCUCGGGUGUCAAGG,2.06

# Sample 3 — technique: universal PBM; form: double-stranded DNA, one strand shown; matrix: in vitro; concentration: 600 nM; direction: higher = stronger binding
# Target: Sal-like protein 4, full length isoform A (SALL4, Homo sapiens, UniProt Q9UJQ4, residues 1-1053)
# UniProt Q9UJQ4, sequence (whole entry, looked up): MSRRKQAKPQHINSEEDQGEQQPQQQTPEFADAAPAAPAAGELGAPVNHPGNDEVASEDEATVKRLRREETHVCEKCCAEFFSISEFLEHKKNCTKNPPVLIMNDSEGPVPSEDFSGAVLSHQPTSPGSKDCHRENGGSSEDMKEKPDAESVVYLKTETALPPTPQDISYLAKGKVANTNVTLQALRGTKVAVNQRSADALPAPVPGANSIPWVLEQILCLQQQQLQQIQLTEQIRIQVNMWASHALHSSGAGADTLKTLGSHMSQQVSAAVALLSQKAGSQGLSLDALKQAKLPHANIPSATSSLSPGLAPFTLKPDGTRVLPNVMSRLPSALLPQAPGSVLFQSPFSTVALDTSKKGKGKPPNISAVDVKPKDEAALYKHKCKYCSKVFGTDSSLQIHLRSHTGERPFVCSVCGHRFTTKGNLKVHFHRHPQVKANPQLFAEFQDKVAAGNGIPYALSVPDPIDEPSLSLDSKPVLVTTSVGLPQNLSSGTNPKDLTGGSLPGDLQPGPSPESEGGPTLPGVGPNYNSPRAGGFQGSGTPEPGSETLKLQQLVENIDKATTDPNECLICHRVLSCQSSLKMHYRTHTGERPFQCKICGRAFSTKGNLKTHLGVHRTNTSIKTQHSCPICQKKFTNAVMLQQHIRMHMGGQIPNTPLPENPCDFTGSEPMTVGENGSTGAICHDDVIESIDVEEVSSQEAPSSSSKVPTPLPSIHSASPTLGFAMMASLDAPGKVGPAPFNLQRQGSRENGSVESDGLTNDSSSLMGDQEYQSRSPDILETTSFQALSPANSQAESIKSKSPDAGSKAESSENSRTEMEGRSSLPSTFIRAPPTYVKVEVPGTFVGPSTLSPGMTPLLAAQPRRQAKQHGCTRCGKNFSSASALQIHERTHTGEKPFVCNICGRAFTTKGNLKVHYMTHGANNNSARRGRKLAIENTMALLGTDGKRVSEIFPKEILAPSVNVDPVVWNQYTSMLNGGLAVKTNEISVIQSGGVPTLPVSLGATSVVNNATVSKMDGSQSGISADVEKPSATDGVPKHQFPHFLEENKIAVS
# Setting: 8-mer, flanks averaged, mean of replicates
Oligonucleotide,E-score
CACAACTG,-0.0623
ATAAAGAG,0.15
GCCGCACA,-0.149
ATGCGCAG,-0.122
AACCAGGT,-0.182
GGCCAGGA,-0.25
CCCAGCCA,-0.171
CCGGCTTC,-0.363
GCCTCCCA,-0.264
AAATAGTC,0.0991

# Mixed results
Substance,target,test,test system,setting,scale,measurement,result
"PhoQ, residues 284 288 289 292 302 303 SVTLVV","PhoP, residues 12 14 15 18 19 SPWRL (Escherichia coli, UniProt P23836)","Sort-seq, measured: YFP reporter",E. coli,"PhoQ-PhoP variant library, with: 10 µM Mg2+","relative to: high Mg2+ state, higher = stronger signaling",fold induction,2.43

# Repeated from above (sample 1):
Change,normalised enrichment score
SATARRIFQEPTE [K2A],0.175
SKTARRIFQEPTA [E13A],0.0684
